Assay results pooled from the literature.
Every numbered part comes from another study and shows a few of its results, in no order. Several values in a cell are separate wells, animals, samples, runs or records.
Chain of UniProt P07949 (whole entry, unmodified, looked up): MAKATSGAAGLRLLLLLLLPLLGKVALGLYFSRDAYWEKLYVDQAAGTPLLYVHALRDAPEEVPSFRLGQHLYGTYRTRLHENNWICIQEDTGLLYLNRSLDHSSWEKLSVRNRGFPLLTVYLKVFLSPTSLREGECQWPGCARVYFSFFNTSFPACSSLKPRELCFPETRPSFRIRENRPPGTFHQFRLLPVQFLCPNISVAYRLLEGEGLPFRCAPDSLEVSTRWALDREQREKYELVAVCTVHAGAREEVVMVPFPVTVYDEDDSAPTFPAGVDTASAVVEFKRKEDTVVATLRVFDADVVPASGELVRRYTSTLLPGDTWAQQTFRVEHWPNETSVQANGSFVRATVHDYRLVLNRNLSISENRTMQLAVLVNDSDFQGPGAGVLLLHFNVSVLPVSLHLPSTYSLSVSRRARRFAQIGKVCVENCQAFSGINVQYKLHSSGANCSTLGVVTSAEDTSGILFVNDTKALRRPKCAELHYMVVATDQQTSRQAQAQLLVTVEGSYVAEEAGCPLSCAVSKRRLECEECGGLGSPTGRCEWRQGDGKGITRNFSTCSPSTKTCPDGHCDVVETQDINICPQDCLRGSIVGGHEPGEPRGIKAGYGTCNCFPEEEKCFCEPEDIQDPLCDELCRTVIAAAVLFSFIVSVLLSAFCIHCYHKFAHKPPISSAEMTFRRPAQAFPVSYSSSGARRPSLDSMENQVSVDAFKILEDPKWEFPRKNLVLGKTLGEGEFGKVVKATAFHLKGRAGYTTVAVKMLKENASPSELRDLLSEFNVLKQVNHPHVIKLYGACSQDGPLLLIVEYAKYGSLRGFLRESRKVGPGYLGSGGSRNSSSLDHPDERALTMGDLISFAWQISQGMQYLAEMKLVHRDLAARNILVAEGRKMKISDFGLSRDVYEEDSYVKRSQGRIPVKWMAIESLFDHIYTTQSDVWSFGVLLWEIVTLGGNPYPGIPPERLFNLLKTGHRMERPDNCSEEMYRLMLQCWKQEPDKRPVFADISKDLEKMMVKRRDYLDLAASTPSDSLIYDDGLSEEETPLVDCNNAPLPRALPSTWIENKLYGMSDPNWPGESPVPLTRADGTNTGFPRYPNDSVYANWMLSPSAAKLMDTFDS
Chain of UniProt Q9BYT3 (whole entry, looked up): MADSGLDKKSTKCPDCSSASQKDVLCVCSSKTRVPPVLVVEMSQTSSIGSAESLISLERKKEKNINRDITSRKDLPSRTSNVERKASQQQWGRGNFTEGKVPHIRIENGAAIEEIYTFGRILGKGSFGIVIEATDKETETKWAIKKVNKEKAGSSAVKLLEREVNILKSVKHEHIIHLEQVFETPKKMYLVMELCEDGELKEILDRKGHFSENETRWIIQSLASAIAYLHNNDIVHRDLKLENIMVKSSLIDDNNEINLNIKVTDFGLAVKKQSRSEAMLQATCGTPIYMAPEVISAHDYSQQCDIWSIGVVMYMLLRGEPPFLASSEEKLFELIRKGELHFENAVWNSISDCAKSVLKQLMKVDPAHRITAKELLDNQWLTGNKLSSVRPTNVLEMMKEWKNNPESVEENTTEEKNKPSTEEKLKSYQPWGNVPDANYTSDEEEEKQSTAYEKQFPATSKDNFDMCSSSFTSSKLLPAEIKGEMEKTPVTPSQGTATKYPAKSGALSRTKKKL
Chain of UniProt Q00526 (whole entry, looked up): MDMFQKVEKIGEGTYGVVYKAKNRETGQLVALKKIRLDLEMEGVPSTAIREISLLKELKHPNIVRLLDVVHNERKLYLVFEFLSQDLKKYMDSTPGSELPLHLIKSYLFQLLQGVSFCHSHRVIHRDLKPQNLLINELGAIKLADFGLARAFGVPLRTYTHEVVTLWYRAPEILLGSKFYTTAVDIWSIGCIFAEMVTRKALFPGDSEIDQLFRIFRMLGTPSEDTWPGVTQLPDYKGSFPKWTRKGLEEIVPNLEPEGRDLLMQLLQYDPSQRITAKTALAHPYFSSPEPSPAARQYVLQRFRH
Chain of UniProt P22607 (whole entry, unmodified, looked up): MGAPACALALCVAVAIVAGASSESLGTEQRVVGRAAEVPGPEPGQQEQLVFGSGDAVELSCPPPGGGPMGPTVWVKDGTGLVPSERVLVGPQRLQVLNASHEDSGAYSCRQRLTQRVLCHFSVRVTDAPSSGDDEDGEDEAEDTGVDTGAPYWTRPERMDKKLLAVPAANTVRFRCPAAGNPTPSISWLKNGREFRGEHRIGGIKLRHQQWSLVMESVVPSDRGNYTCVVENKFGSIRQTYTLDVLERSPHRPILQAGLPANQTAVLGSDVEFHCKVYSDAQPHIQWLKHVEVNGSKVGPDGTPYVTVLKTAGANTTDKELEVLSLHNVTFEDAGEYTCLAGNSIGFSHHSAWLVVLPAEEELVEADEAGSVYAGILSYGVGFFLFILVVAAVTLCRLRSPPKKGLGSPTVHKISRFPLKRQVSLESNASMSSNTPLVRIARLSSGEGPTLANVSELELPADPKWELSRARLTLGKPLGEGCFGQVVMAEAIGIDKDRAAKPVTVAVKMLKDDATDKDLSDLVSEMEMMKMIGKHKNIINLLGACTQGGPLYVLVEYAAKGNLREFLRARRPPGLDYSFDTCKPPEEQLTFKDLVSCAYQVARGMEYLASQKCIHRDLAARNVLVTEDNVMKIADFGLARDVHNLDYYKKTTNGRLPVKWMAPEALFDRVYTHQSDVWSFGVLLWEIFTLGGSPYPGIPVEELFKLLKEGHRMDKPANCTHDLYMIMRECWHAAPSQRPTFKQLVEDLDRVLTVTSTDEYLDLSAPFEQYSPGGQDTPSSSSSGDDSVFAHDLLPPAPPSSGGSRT
Chain of UniProt Q9UF33 (whole entry, looked up): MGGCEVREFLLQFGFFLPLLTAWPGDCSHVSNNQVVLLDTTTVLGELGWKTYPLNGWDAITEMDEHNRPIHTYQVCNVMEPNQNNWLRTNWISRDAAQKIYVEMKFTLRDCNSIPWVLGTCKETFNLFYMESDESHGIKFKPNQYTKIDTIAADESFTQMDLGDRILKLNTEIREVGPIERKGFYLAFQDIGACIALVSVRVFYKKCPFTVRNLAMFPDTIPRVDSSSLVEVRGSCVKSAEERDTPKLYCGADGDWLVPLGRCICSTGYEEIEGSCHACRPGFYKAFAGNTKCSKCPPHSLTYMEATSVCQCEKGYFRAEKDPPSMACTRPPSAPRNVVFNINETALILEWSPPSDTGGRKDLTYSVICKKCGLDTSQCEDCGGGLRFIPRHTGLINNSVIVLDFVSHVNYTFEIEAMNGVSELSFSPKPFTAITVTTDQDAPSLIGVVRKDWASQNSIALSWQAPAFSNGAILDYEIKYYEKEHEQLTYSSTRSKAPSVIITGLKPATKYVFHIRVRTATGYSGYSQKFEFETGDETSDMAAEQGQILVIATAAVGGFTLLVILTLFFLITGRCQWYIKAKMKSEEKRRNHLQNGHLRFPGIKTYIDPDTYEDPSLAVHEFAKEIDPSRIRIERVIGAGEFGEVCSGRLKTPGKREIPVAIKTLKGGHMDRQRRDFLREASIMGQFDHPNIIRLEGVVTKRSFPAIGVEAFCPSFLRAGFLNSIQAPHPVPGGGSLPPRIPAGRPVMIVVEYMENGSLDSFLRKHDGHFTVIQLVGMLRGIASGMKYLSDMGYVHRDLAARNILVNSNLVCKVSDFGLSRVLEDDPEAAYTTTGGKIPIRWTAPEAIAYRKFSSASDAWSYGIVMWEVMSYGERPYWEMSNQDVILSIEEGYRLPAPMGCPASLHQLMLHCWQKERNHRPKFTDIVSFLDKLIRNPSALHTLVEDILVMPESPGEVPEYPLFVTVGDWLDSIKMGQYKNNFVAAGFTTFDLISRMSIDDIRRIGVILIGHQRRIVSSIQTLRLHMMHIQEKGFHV

Study 1
Target: Interferon regulatory factor 7, full length, phosphomimetic (IRF7, Homo sapiens, UniProt Q92985, residues 1-503, S101K/S471D/S472D/S475D/S476D/S477D/S483D/S484D/S487D)
Chain of UniProt Q92985 (whole entry, unmodified, looked up): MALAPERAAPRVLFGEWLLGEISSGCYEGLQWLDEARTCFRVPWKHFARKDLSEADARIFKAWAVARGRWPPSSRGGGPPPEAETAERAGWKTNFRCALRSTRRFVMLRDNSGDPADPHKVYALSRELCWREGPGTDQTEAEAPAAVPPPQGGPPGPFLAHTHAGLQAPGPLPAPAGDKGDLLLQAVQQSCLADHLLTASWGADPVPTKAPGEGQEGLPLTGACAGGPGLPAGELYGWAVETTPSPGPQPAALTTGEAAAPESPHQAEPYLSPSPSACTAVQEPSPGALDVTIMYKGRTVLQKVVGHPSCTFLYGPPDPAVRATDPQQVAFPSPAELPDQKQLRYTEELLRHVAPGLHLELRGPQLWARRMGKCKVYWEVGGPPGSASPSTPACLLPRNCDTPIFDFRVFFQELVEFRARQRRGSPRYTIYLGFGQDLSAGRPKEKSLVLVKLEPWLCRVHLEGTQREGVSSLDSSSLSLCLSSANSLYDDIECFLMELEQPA
Technique: protein-binding microarray
Molecule type: double-stranded DNA, one strand shown
Matrix: in vitro
Concentration: 250 nM
Setting: 60-bp whole probe
Together with: salmon DNA 0.4 mg/ml
Baseline: random background probes
Reading: higher = stronger binding
Quantity: log fluorescence
Constant ends, left off below: GCCTAGCAC … GTCTTGATTCGCTTGACGCTGCTG
GACGGAATCGGACTGGGGACGTGCTAG: -0.4 z-score
TTAGATTTGAGTTTCGATTAGTGCTAG: 7.94 z-score
GACGGACTGGGTATCGGAACGTGCTAG: 0.0449 z-score
TTGGTTCTGATCCTTCCCCTCGTGCTA: 0.452 z-score
GACGGACTGCTTAACCTGACGTGCTAG: -0.316 z-score
TTAGGTTTCGGGTATCGGTTTGTGCTA: 8.89 z-score
ATTTTAATCACATATACACTGGTGCTA: 0.797 z-score
TTAGGTTTCCTTATCGTTTAGTGCTAG: 2.88 z-score

Study 2
Target: Serine/threonine-protein kinase haspin (HASPIN, Homo sapiens, UniProt Q8TF76)
Chain of UniProt Q8TF76 (whole entry, looked up): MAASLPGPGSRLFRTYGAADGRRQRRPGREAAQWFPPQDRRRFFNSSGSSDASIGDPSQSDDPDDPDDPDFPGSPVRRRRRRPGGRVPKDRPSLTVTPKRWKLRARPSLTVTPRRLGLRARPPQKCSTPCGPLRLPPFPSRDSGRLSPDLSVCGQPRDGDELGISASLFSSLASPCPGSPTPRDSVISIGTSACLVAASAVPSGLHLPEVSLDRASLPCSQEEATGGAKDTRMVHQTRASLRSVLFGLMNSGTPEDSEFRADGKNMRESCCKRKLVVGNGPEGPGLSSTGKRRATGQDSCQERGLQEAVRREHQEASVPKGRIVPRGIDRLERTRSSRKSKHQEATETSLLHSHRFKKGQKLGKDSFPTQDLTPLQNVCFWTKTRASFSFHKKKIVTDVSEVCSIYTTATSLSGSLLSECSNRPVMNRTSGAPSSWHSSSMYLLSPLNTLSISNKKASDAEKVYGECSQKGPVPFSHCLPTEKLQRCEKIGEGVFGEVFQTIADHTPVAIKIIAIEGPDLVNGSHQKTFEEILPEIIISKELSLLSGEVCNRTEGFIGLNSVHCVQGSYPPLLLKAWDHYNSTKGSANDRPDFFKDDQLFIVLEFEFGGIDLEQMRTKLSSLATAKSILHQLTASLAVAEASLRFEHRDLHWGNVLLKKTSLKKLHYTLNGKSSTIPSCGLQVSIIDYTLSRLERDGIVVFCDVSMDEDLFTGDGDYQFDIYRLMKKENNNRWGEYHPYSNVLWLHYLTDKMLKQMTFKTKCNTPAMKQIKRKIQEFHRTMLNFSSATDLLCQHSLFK
Read-out: enzyme activity
Mode: inhibitor
Concentration: 0.5 µM
Baseline: control
Quantity: remaining activity
CN(C)S(=O)(=O)c1ccc2c(c1)/C(=C/c1cc3c([nH]1)CCCC3)C(=O)N2: 116%
COc1ccc2c(c1)c(C1=C(c3c[nH]c4ccccc34)C(=O)NC1=O)cn2CCCN(C)C: 93.5%
O=C1NC(=O)c2c1c1c3ccccc3[nH]c1n1cncc21: 33.5%
O=C(c1cc2cc(O)ccc2[nH]1)c1cc2cc(O)ccc2[nH]1: 34.8%
Cc1ccc(S(=O)(=O)/C=C/C#N)cc1: 101%
CN1CCN(c2ccc3nc(-c4c(N)c5c(F)cccc5[nH]c4=O)[nH]c3c2)CC1: 75%
N#Cc1cnc2cnc(NCc3cccnc3)cc2c1Nc1ccc(F)c(Cl)c1: 82.5%
O=C1Nc2ccccc2/C1=C\c1c(Cl)[nH]c2ccccc12: 91%
CCCNC(=O)Nc1ccc(Oc2ncnc3cc(OC)c(OC)cc23)cc1Cl: 99.1%
Oc1cccc(-c2nc(N3CCOCC3)c3oc4ncccc4c3n2)c1: 90.3%

Study 3
Structure (SMILES): O=C1NC(c2ccccn2)Sc2ccccc21 (centres unmarked)
Read-out: cell-free assay
Technique: competition with immobilised ligand
Concentration: 1 µM
Quantity: remaining binding
EPHA6 (Homo sapiens, UniProt Q9UF33): 79%
CLK3 (Homo sapiens, UniProt P49761): 97%
NUAK2 (Homo sapiens, UniProt Q9H093): 100%
CDK3 (Homo sapiens, UniProt Q00526): 100%
TBK1 (Homo sapiens, UniProt Q9UHD2): 87%
TAOK2 (Homo sapiens, UniProt Q9UL54): 71%
PHKG2 (Homo sapiens, UniProt P15735): 73%
IRAK1 (Homo sapiens, UniProt P51617): 96%
EGFR (Homo sapiens, UniProt P00533): 82%
PRKAA2 (Homo sapiens, UniProt P54646): 100%
MARK3 (Homo sapiens, UniProt P27448): 95%
FGFR3 (Homo sapiens, UniProt P22607, G697C): 100%
STK33 (Homo sapiens, UniProt Q9BYT3): 93%
MTOR (Homo sapiens, UniProt P42345): 100%
Tyrosine-protein kinase ABL1, non-phosphorylated (ABL1, Homo sapiens, UniProt P00519, Q252H): 75%
RET (Homo sapiens, UniProt P07949, V804L): 69%
RET (Homo sapiens, UniProt P07949): 88%
MAPK9 (Homo sapiens, UniProt P45984): 100%
HUNK (Homo sapiens, UniProt P57058): 80%

Mixed results
CC(C)C[C@@H]1NC(=O)[C@@H](N(C)C(=O)[C@H](CC2CCC2)NC(=O)[C@@H]2C[C@@H](F)CN2C(=O)C2(C(F)(F)F)CC(F)(F)C2)CCCCNC(=O)C2(CC2)NC(=O)[C@H](Cc2cc(Cl)ccc2Cl)N(C)C1=O — cell count (NCI-H446; Vi-Cell counting; 200 nM, 3 days, together with: Mps1 inhibitor 3 nM; baseline: DMSO): 0.5 and 0.473

Some of these lines once more (study 3):
TBK1 (Homo sapiens, UniProt Q9UHD2): 87%
TAOK2 (Homo sapiens, UniProt Q9UL54): 71%
PHKG2 (Homo sapiens, UniProt P15735): 73%
